Measurements of several laboratories.
Numbered parts are unrelated; each lists some results of a single study.

Set 1
Target: Ras GTPase-activating protein-binding protein 1, full length (G3BP1, Homo sapiens, UniProt Q13283)
Chain of UniProt Q13283 (whole entry, looked up): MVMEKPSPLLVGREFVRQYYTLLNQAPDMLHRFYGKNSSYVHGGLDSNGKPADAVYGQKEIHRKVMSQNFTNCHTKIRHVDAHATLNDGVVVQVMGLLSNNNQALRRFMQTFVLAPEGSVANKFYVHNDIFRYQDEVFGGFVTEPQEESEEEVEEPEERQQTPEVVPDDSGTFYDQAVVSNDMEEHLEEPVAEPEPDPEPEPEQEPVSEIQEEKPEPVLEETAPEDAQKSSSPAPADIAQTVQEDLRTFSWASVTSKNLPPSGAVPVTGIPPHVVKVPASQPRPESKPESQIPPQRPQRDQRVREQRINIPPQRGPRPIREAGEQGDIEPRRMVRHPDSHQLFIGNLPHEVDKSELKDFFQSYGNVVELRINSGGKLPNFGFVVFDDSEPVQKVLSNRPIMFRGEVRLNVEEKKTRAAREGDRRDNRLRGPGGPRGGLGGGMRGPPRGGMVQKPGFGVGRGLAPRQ
Method: RNA Bind-n-Seq
Form: RNA
Sample: in vitro
Concentration: 200 nM
Setting: whole 134-nt RNA, ends assumed
Added: 150 mM KCl
Relative to: input library
Reading: higher = stronger binding
All sequences stand within: GGGAGUUCUACAGUCCGACGAUC … UGGAAUUCUCGGGUGUCAAGG
Sequence	log2 enrichment
ACCAUGCAGGUGGGCAUCUUUGGGAAGUGGGGCAAGGGGGGGAUAGUGAGGGGGGUAACACUUUGGGAACAGGUGGUCCCAGGUCGUUUC	1.04
UGGCCCUGGUGGCAUGCGGGGAGGAAGAGGUGGCCUCUUGGAUCGUGGUGGUCCCGGUGGAAUGUUCAGAGGUGGCCGUGGUGGAGACAG	0.305
GUCCUGUGCUACACAUCGUAUGUACCGAAUCGGGUUUUUUUGGGUUUGGGAAAAAGGGAAAGUAUUAUGUUACGCCGUUCGGAUCUGCAC	-0.486
CUCAAGUCCUGUGCUACACAUCGUAUGUACCGAAUCGGAAAAAGGUGGAAAGGAAAGUAUUAUGUUACGCCGUUCGGAUCUGCACUUCCA	-0.496
GCAGGAAGUAAAAACAAAUGGAAAUGCUUCGGAUAGUGACAGGGGUGGGGGUUGCUAAGGAAAGGGUGGGAUGGGAGUGGGUAAAGAGUU	0.867
CCUGUGCUACACAUCGUAUGUACCGAAUCGGGGUUUUUUUGGGGAAAAAAAGGGGUGGGGAAAGUAUUAUGUUACGCCGUUCGGAUCUGC	0.372
UCCUGUGCUACACAUCGUAUGUACCGAAUCGGCCCCCCCGGCCCCCCCGGGCCCCCCCGGAAAGUAUUAUGUUACGCCGUUCGGAUCUGC	0.385
ACCAUGCAGGUGGGCAUCUUUGGGAAGUGGGGCAAGGGGGGGAUAGGGCGGGGGGUAACACUUUGGGAACAGGUGGUCCCAGGUCGUUUC	1.21
UCCUCAAGUCCUGUGCUACACAUCGUAUGUACCGAAUCGGUGGUGGAAAGGAAAGUAUUAUGUUACGCCGUUCGGAUCUGCACUUCCAGC	-0.396
UGGCCCUGGUGGCAUGCGGGGAGGAAGAGGUGGCCUCAUGGAUCGUGGUGGUCCCGGUGGAAUGUUCAGAGGUGGCCGUGGAGGAGACAG	0.24
UCCUGUGCUACACAUCGUAUGUACCGAAUCAAAUUUUUAAAUUUUUUUAAACCCCCAAAAAAGUAUUAUGUUACGCCGUUCGGAUCUGCA	0.0895
AGUCCUGUGCUACACAUCGUAUGUACCGAAUCGGGCCCCCGGCCCCCGGCCCCCGGGAAAGUAUUAUGUUACGCCGUUCGGAUCUGCACU	-0.531
UGGGAGGUGGAUUUUGUUUAUUUUUUUAGCUCAUUUCGAGGGGUGGGAAUUUUUUUUUAAUAUGUGUCAUGAAUAAAGUUGUUUUUGAAA	0.0754
AGUCCUGUGCUACACAUCGUAUGUACCGAAUCGGGGUGGGGAAAGGGGUUUUUGGGGAAAGUAUUAUGUUACGCCGUUCGGAUCUGCACU	0.503

Set 2
Target: RNA binding protein fox-1 homolog 2, RRM domain, GST-SBP tag (RBFOX2, Homo sapiens, UniProt O43251-10, residues 100-194)
Method: RNA Bind-n-Seq
Form: RNA
Sample: in vitro
Concentration: 365 nM
Setting: natural RNA segment, single round, ends assumed
Relative to: no-protein control
Reading: higher = stronger binding
All sequences stand within: GGGAGUUCUACAGUCCGACGAUC … UGGAAUUCUCGGGUGCCAA
Target sequence (chain): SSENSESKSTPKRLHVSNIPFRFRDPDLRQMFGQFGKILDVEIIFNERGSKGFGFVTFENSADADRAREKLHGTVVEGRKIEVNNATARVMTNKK
Sequence	RBNS enrichment (R)
AGAUGAAACCUGUAUAUUAGGUGUUCAUGUGGUUAUUUUGUAUUUAAAGAUCAAAUUAUUUGAUUAUUGCUAGACAUUUCUAUACUCUGUUGUAACACUGAGGUAUCUCA	0.974
UUAUUAGUUUAGUAUUUUAAAAGAUUUAAUUUUCUGAAUGAGGCAUUUGAAUUGUACCAGCAAUGGACUUUUAAAAAAUUGGAUGUAAAACCAUUCAGGGUGAUUUUUCU	0.693
ACAGCCAUGUCUGCGACGAUCAGCCUCUGGAGGCUGAAUGGGAAGCAGAGCUUUCGACCCACUCUAGUGGCUGGGCGGGCGUGGGGUAUCUAGCAGGCUGGAGUGAAGGG	0.653
CAUGUACAUAUAUAUAUAUAUAAAACAUCAGCCUUGGGUGUGUUUGUAUAUAAACUCCAAAGAGAAACACCCCAAUAGCCUAAGCAAUAAUGCAAAGAUCUUGCCCCUGC	0.521
AGCUCAGUGAGUCAUGGAACGUCAGUUAGAAAACGAAGUUAGGGUCGUUUCUGGGAAGAGAAUCAAUACCUGUUAGAGCCAGAAUGCUCCAAGUCUUUUAGCUUGUUCAU	0.669
UUGCUUUCAUUAUUACCAAGUCAAGAGUACAACAGAGCUAGUGAACCGUAGCAGCAUGCGAAGCAGGGCUGUGAACUAUCACCACACAGUGCAUUGUCCCGUGGAGGUGU	3.7
UUCAAAGACAGCUAGCUGUCACUGGUGCUCCCCCCAAAGCGUUUCACCCCCUUCUGUGCAUCUUAGGAAUGAAAUGGUUGCUGUGUGCAGGUCAGGUUAAUGGAAGAACG	5.72
AACUGACACAUCUGUUCUGUUGGUAAAUAAGGAGACACCCGGUAAAACUAAUUUAGGUUCCAAUAGUUGUGCAGAACUUGUGUUUCUUGGUGAUUCUCCUCAAGUACUAG	0.462
UUAUUAUUUUUAAUUUUCUAAAUUAAAUAAAAGAAAGAAUGCAAACCAGGAGUGAAUUUCAAAUGAGAUGUAAUCGACUUUAUAUCUUAGUCACGGAGUUGCCAUGGCAU	0.336
CAUUUAUACCGAGUGAGAUCAUUAACAAUGAAAUUGAGAGAUUAGAGCAUCCUCACUGGGUGAUGGUAACAGGGAAUGUAGAGGGCUGAUAUCUUCCCCUAAGAGAGGCA	5.42
UGCUGCUUCGAGGCCCUGAAGCUGGGGCUGUGAGACCCUUCCCUACAGUGUCCUCUUCCUCUGCUGGCUGGGAGCAGCGGGAGGCAGGGCAGAAACGUUGGGCUCCAUUC	0.718
AAUGUUCCCUCCCAUCUCAGGCCAGCGCCAUGUCGAGGCAUCUUCAGUCCACCCCUGCCUAAGGCUCAGGCUACCUGCUUUGGGGCACAGCUUCCUGGUACUCACAGCAU	0.611

Set 3
Target: RING finger protein unkempt homolog, zinc fingers 1-6, SBP tag (UNK, Homo sapiens, UniProt Q9C0B0, residues 30-357)
Chain of UniProt Q9C0B0 (30-357, looked up): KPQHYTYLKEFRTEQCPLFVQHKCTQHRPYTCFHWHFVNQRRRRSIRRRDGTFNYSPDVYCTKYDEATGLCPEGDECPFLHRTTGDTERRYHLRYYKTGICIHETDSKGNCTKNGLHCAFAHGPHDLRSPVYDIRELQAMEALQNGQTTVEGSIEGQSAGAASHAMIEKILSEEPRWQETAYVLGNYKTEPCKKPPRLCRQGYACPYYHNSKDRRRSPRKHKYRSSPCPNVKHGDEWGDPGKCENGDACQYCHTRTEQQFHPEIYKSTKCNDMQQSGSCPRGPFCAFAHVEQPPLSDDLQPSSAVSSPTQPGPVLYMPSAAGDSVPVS
Method: RNA Bind-n-Seq
Form: RNA
Sample: in vitro
Concentration: 100 nM
Setting: RNA with constant flanks, vertebrate orthologous sites, ends assumed
Relative to: input RNA pool
Reading: higher = stronger binding
All sequences stand within: GGGAGUUCUACAGUCCGACGAUC … CAACAGAGGAUUGAGCAUCA
Sequence	bound/input enrichment [ratio]
AACAGCAUAAGCUGUUUAAGCUGUGGGAAAAUGAGCUUUGCUUUUUUUUAUAUAUUUAAAUAGGAUACUUUUGUAUGAUGGGUGCUUUGAGUACGAAUGCAGCAGGCUCUCUAUUUCAGA	0.783
CAUUACUGUUAAGCACUGUGUUCCAGACCGUGUCUGACUAGUGUAACCUAGGAGAUUUUAUAGUUUUAUUCUAAUGAAAUCCUGAUUGAUGCAGAGCAGUGGGGAGAAUGGUCCCUUUUA	1.63
GUGACUUUGGACGUCCGUUCAUCCUCGGUGUAGGGAUUACUUAGUGCUGGGCCUUGCGCGUUUGGUUUUUUUCUUGACCGGAGGCCUCUGCAGCAACCAUGUUACGCCAGAUCGUGGGUC	0.33
UACCUGUGUACAUUUCAUUCACAACACUGAAUGCAAAGUAGCGAUUUCCAUAGUCACAAAAUAAUGUAGCUUUAGGGCGAUAUCACCAUGGGUUUUACUCAUGUGCAGGUCUUGAAAAUG	0.583
AAUUUUUUAAAGUUUUUUUAAUUUAAUUUUUCCUUUGGGGGUACAGUUUGCUCUACCAAAUAGUGAUCGUAACAAAUUGAUCUGUUUUGGAUGUUGCUAUAGUGACAUGCAGUUAUAUAU	1.11
ACCUAAUUUCUAGGACUUAAGCCAACAAUUCUAAAAUAUUUGUUUGUGUAAGUCUGUACAUAGUAAUGCCAACCUCAUUGUUCCAAGGGUUUUUUCCCGUGUGUUUGGGGUUUUGUUUUG	0.252
UUCCACACCACUGGGUUGAAAGAUAAAGAUGGAACAGCCAUUGUAGCUAGAAGGAGUCCAUUUUUGUUCCCAUUUGCGUCAUCAUCCCCAGACCAAGGUGGUAGCAGAUUUCUCCCUCCC	0.53
UAUUAGUGUCAUACCAGCAUAUUAACCUCUCGUCUGUGCACAGCUUCCAACGUUACUGUCUAGUUAGAUUUUUAUUUAAAAUAUGAAAAACUGCUUUUCCCAAGACGUUUUUUAAAAACA	1.31
UUCAGGCACAACUGACUGGUUCACAGCAUUCCUUACAUAGUUAUCUAUCAAAUGCAAAUGUAGUUAAUUUUCAGGAAACAAGCAGGCAGUCAUCUUUAUCCUGUAGCCCAGUUGGAGAGU	1.57
UGUGUUGGUGCAGAGCAUCUGUACCAGUGCUCAUCAUCCCUUCUUCAUACCAACUGUCUCUAGUUGUAGGAAUUUAAUAUUUUUAAAAGUUUUACAUUGCUGUAUAUUCAAAGAUUUGUU	0.571
AUCUGACUGCUGGAUGAAGACUGUUCCAAGUUAUAACCAAACAAAUAGCUCCAUGGACUUUAGAAAUUAUAUGAUGAGAGAUGAGAAUCUAGAGCCACUGCCCAAAAACUGGGAGAUGGC	0.72

Set 4
Target: Histone acetyltransferase KAT6A, both winged helices, GST fusion (KAT6A, Homo sapiens, UniProt Q92794, residues 1-181)
Method: protein binding microarray
Form: double-stranded DNA, one strand shown
Sample: in vitro
Concentration: not given
Setting: 8-mer, flanks averaged, mean of 2 arrays, mostly near background
Relative to: not given
Reading: higher = stronger binding
Residues (chain): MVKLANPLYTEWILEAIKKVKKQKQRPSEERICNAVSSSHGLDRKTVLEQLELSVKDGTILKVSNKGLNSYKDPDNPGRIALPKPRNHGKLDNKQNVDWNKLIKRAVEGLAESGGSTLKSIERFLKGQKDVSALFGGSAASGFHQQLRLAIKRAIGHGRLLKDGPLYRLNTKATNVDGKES
Sequence	E-score
ACTTAGAC	-0.0932
ACACAAGA	-0.181
TACTGAGA	-0.0846
AACTGAGC	0.0177
ATCCCTGC	-0.129
GTTGAGCA	-0.0635
CCTAAGGC	-0.0894
GCCTGGAC	-0.0811
CCTGCAAA	-0.209
ATAGCACA	0.00122
CTGACACC	-0.11
GCCTGAAA	0.0195
CCAACAGG	-0.155
ATAAACTG	-0.0898
GGGTTCCA	-0.00886
GCTGTAGA	0.0301
GACCGCTA	0.239
ATGTGCCG	0.138
AGTTCGTA	0.0171
ACCCTACG	-0.023
CATACTCC	-0.0772
ATAGCCAT	-0.132
CATTCGTC	-0.0306
AAACAAAC	-0.141
CTGGGCTC	-0.252

Set 5
Target: Sal-like protein 4, full length isoform A (SALL4, Homo sapiens, UniProt Q9UJQ4, residues 1-1053)
Chain of UniProt Q9UJQ4 (whole entry, looked up): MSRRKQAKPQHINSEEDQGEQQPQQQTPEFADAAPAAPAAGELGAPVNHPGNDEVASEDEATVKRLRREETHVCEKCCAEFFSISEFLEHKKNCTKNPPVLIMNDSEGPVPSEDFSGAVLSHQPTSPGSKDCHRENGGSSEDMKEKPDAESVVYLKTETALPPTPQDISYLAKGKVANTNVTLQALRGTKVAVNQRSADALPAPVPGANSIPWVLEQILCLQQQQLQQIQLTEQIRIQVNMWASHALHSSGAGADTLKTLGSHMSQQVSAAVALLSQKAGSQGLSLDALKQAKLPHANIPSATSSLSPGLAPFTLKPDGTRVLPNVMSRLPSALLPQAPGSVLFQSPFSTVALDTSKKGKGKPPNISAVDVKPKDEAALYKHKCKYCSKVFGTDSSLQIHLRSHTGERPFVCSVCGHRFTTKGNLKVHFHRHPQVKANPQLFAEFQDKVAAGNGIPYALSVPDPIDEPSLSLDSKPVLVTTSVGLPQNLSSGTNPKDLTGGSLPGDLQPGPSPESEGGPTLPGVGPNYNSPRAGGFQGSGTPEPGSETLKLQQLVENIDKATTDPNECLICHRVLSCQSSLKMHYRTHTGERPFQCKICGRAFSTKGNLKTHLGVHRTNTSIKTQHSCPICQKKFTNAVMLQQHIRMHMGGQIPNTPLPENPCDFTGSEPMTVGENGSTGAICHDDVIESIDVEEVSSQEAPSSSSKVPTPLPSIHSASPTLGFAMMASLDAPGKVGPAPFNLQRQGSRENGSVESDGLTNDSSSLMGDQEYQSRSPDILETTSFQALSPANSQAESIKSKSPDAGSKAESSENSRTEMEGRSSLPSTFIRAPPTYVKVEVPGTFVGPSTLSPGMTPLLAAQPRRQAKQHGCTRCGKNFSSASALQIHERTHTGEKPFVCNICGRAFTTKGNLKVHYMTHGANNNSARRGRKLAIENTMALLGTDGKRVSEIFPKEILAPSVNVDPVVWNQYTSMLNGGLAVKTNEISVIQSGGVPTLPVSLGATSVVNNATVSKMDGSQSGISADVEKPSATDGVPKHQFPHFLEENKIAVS
Method: universal PBM
Form: double-stranded DNA, one strand shown
Sample: in vitro
Concentration: 600 nM
Setting: 8-mer, flanks averaged, mean of replicates
Reading: higher = stronger binding
Sequence	E-score
AAGGTCAA	0.0755
ACAGGAGC	-0.0256
CCACTATA	0.207
TGGGCCAA	-0.0944
ATCCACCA	0.0517
ATGGGTAA	0.175
ATCACAGG	-0.0172
GGTGAGTA	-0.0387
ATTTACAA	0.335
AGCGGAGA	-0.0556
CTGTGCAC	-0.146
CAGCGGGC	-0.225
CCCATGGC	-0.333
AGCCGAAC	-0.213
AAGATTTG	0.124
AGGGTGAG	-0.174
CCACAGCA	-0.0778
AAGGCAGG	0.0337
CCATGTTA	0.155
ACGTAAGT	0.0966
ATGTCACC	-0.0454
